Measured values gathered from unrelated publications.
Each line is one published result; not all experiments were run side by side.

The EC50 of `Cc1ncc([N+](=O)[O-])n1CCO` is reported as 88.6 µM (Escherichia coli expressing YdgI_Bs nitroreductase; growth inhibition, substrate, OD600; 4 h).
For `CC(ONC(=O)c1cc(C(F)(F)F)cc(C(F)(F)F)c1)C(=O)Nc1ccc(Cl)cc1` (centres unmarked), the EC50 was 5.21 µM (PH5CH8; steatosis inhibition, high-content imaging; 72 h, added: sodium oleate 1 mM).
`CC(=O)C1=C(C)Nc2sc(C(=O)c3ccc(Cl)c(Cl)c3)c(N)c2C1c1cccnc1` (centres unmarked) has an EC50 of 33 µM (BV-2; phagocytosis, high-content imaging; geometric mean, added: pHrodo-myelin uptake).
`CN(C)C/C=C/C(=O)Nc1ccc(C(=O)Nc2cccc(Nc3ncc(Cl)c(-c4c[nH]c5ccccc45)n3)c2)cc1` gave an EC50 of 0.969 µM (PH5CH8; steatosis inhibition, high-content imaging; 72 h, added: sodium oleate 1 mM).
The EC50 of `C[C@]12CCCN1CC1=NNC(=O)c3cc(F)cc4[nH]c2c1c34` is reported as greater than 3 µM (SW480 colorectal cancer cells; cell viability; concentration not given, added: with temozolomide).
With `COc1cnc2cccc(N3CCc4c(cc(Cn5ccnc5C)cc4-c4cn(C)nc4C(F)(F)F)C3=O)c2c1` the EC50 was 0.065 µM (SU-DHL10; cell growth, inhibitor; 120 h).
For `Clc1ccc(COc2cncc(-c3cnn(C4CCNCC4)c3)c2)c(Cl)c1`, the EC50 was 1.94 µM (BV-2; phagocytosis, high-content imaging; geometric mean, added: pHrodo-myelin uptake).
For `CCn1cc(-c2cc(Cn3ccoc3=N)cc3c2CCN([C@@H](C)c2cc(OC)ccn2)C3=O)c(C(F)(F)F)n1`, the EC50 was greater than 30 µM (HEC-1-A; cell growth, inhibitor; 120 h).
The EC50 of `CN(C)CCOc1ccc(-c2nc(-c3ccncc3)c(-c3ccc4c(c3)CC/C4=N\O)[nH]2)cc1` is reported as 5.97 µM (451Lu-R3 BRAF inhibitor resistant; cell viability; 72 h, single agent).
The EC50 of `CCn1cc(-c2cc(Cn3ccnc3)cc3c2CCN([C@H](c2cc(OC)ccn2)C2CC2)C3=O)c(C(F)(F)F)n1` is reported as 1.21 µM (HEC59; cell growth; 120 h).
With `O=C(Cc1ccccc1)Nc1nnc(CCSCCc2nnc(NC(=O)Cc3ccccc3)s2)s1` the EC50 was roughly 20 µM (BT-474; cell proliferation, inhibitor, cell counting; 144 h).

Repeated from above:
For `CC(ONC(=O)c1cc(C(F)(F)F)cc(C(F)(F)F)c1)C(=O)Nc1ccc(Cl)cc1` (centres unmarked), the EC50 was 5.21 µM (PH5CH8; steatosis inhibition, high-content imaging; 72 h, added: sodium oleate 1 mM).
`CC(=O)C1=C(C)Nc2sc(C(=O)c3ccc(Cl)c(Cl)c3)c(N)c2C1c1cccnc1` (centres unmarked) has an EC50 of 33 µM (BV-2; phagocytosis, high-content imaging; geometric mean, added: pHrodo-myelin uptake).
